Experimental data from different studies.
Each line is one published result; not all experiments were run side by side. ± marks the error that the study gave.
fbpC: Diacylglycerol acyltransferase/mycolyltransferase Ag85C (fbpC, Mycobacterium tuberculosis, UniProt P9WQN9)
Chain of UniProt P9WQN9 (whole entry, looked up): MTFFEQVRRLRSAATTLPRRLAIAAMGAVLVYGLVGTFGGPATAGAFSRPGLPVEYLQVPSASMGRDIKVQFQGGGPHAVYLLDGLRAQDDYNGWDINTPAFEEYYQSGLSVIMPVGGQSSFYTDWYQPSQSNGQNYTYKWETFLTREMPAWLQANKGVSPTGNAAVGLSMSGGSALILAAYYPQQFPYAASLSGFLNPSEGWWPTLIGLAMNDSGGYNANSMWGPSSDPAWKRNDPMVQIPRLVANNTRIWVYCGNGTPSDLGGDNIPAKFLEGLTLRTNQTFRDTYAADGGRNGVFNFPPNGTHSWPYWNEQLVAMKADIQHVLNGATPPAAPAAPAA
CNR2: Cannabinoid receptor 2 (CNR2, Homo sapiens, UniProt P34972)
Chain of UniProt P34972 (whole entry, looked up): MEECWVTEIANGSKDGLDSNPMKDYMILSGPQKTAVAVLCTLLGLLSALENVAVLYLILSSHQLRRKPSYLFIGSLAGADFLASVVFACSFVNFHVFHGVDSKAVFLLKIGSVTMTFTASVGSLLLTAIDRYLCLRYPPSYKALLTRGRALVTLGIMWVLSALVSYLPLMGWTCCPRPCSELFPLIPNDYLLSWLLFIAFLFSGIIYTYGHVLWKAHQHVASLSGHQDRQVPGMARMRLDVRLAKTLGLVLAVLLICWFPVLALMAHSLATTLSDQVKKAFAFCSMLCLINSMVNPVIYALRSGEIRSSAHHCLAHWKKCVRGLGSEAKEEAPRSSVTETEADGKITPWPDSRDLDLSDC
ribE: Riboflavin synthase (ribE, Mycobacterium tuberculosis, UniProt P9WK35)
Chain of UniProt P9WK35 (whole entry, looked up): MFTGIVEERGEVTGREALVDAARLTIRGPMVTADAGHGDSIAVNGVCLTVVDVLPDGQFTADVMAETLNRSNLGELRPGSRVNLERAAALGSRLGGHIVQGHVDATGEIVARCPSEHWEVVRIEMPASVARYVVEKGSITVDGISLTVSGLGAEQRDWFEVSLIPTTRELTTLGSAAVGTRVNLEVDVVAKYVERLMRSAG
ADRA2A: Alpha-2A adrenergic receptor (ADRA2A, Homo sapiens, UniProt P08913)
Chain of UniProt P08913 (whole entry, looked up): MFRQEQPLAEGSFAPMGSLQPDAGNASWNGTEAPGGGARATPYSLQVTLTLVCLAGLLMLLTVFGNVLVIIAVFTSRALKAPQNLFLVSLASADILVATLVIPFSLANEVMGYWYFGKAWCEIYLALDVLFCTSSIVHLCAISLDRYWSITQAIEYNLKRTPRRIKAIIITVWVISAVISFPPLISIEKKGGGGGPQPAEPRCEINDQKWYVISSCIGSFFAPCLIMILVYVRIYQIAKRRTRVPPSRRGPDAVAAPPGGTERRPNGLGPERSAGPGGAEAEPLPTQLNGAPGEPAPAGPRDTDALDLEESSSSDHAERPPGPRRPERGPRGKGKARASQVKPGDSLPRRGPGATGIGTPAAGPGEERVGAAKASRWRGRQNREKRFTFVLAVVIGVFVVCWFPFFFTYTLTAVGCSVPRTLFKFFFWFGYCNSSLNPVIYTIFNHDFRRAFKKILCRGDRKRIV
Type II NADH:quinone oxidoreductase Ndh: Type II NADH:quinone oxidoreductase Ndh (Mycobacterium tuberculosis, UniProt P95160)
Chain of UniProt P95160 (whole entry, looked up): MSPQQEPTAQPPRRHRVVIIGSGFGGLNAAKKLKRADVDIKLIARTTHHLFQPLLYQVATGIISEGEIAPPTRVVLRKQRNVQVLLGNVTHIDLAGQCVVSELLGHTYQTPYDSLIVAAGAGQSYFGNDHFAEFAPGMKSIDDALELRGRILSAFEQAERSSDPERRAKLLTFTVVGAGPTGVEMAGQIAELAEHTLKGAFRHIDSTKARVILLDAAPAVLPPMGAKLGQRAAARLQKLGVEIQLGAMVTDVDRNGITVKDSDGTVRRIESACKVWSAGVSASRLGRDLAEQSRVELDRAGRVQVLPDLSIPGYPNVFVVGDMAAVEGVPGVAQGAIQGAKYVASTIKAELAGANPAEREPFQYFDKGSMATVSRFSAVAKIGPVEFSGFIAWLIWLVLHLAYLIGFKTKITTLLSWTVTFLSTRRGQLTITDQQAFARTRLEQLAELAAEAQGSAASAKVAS
OPRK1: Kappa-type opioid receptor (OPRK1, Homo sapiens, UniProt P41145)
Chain of UniProt P41145 (whole entry, looked up): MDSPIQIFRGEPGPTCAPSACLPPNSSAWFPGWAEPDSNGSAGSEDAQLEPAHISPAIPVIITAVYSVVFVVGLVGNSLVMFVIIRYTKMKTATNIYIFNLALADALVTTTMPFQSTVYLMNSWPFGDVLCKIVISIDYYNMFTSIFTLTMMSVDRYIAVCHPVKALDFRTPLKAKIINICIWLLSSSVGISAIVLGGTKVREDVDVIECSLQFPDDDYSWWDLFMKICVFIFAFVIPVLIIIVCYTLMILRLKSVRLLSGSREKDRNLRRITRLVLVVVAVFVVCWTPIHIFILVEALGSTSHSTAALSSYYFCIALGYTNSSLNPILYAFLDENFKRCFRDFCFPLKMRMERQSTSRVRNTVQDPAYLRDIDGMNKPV
Gabrg2/Gabra5 with β3 subunit: Gabrg2/Gabra5, with β3 subunit (Rattus norvegicus, UniProt P18508+P19969)
Chain of UniProt P18508 (whole entry, looked up): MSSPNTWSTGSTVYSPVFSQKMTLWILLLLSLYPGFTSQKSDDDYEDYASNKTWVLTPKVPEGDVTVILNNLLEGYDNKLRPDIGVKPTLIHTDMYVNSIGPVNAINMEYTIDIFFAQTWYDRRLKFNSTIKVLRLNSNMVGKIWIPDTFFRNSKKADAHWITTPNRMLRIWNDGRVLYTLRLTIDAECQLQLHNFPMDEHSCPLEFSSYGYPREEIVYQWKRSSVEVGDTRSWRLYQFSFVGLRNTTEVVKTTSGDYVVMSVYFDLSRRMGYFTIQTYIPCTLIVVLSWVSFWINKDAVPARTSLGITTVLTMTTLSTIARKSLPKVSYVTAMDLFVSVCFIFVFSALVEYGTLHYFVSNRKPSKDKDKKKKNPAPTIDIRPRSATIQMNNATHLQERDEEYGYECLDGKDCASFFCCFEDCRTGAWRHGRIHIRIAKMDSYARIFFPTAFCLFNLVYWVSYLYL
Chain of UniProt P19969 (whole entry, looked up): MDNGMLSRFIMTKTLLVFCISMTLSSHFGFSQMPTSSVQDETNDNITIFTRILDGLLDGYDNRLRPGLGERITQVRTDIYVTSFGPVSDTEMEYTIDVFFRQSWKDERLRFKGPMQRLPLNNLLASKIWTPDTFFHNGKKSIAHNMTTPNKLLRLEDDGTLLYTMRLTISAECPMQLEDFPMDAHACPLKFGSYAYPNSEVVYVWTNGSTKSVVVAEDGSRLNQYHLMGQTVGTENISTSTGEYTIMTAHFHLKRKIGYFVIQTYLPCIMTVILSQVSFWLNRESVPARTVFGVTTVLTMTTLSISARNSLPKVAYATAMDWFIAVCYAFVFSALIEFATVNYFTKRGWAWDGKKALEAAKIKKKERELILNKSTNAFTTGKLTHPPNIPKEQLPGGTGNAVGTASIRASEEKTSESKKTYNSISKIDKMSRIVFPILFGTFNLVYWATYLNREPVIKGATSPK
Chain of UniProt P41146 (whole entry, looked up): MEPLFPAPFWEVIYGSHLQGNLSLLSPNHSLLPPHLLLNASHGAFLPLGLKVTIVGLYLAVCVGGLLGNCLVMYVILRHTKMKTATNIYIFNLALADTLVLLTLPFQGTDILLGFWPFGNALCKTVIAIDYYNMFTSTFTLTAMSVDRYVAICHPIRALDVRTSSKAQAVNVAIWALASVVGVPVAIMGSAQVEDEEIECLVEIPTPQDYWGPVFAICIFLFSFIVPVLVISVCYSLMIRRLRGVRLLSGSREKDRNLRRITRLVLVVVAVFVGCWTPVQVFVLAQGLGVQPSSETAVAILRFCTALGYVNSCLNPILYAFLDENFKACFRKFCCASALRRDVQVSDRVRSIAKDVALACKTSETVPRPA
Chain of UniProt P26439 (whole entry, looked up): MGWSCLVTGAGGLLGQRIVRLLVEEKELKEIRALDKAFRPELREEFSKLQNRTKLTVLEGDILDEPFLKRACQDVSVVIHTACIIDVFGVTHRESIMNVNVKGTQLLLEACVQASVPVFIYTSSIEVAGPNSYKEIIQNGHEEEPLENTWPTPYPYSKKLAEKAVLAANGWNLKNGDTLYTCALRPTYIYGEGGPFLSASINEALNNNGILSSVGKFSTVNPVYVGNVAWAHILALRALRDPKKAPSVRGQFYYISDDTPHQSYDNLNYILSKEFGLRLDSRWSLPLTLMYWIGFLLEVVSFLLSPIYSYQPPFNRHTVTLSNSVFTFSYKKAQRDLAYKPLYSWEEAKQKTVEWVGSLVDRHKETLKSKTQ
Chain of UniProt O33336 (whole entry, looked up): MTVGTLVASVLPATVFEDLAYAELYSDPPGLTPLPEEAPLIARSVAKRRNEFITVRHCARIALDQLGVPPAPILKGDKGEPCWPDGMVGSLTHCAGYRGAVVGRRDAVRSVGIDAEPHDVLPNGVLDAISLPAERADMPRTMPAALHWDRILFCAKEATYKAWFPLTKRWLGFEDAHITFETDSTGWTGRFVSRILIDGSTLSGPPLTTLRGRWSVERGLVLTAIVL
Chain of UniProt P47746 (whole entry, looked up): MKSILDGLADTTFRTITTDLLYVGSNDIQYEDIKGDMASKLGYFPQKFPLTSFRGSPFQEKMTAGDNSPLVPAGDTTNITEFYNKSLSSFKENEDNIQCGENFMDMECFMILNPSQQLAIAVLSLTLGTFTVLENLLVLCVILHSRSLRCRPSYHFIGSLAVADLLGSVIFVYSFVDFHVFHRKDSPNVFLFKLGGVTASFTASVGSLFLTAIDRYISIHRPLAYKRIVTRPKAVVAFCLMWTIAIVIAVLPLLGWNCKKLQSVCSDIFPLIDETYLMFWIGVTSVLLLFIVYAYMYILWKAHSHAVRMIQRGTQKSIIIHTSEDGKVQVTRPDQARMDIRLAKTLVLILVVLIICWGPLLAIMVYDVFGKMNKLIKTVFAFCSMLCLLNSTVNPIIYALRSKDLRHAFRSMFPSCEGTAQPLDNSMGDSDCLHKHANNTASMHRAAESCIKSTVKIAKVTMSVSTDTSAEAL

Compound = COC(=O)/C=C/C(=O)N[C@@H]1CC[C@@]2(O)[C@H]3Cc4ccc(O)c5c4[C@@]2(CCN3CC2CC2)[C@H]1O5; target = Mu-type opioid receptor (OPRM1, Homo sapiens, UniProt P35372); test = radioligand competition; test system = CHO transfected; how to read = reference: human over rhesus MOR; measurement = Ki ratio; result = 2.9
Compound = O=c1c2ccccc2[se]n1C1CCCC1; target = fbpC; test = inhibitor, resorufin butyrate fluorescence; conditions = 5 µM, 40 min preincubation; how to read = reference: untreated; measurement = remaining activity; result = 40 ± 17%
Compound = Cc1cc2cccc(C(=O)N[C@H]3CC[C@@]4(O)[C@H]5Cc6ccc(O)c7c6[C@@]4(CCN5CC4CC4)[C@H]3O7)c2[nH]1; target = Delta-type opioid receptor (Oprd1, Mus musculus, UniProt P32300); test = agonist; how to read = reference: SNC80; measurement = Emax; result = ~77%
Compound = N[C@@H](CO)C(=O)O; target = D-3-phosphoglycerate dehydrogenase (serA, Mycobacterium tuberculosis, UniProt P9WNX3); test = enzyme activity, inhibitor; conditions = pH 7.5, 200 mM potassium phosphate, together with: substrate about 400 µM; measurement = Hill coefficient; result = 1.6 ± 0.1
Compound = N[C@@H](Cc1c[nH]c2ccccc12)C(=O)O; target = Indoleamine 2,3-dioxygenase 1 (IDO1, Homo sapiens, UniProt P14902); test = stopped-flow absorption; conditions = 20 °C, first site, cyanide-bound ferric, together with: cyanide 1 mM; measurement = kon; result = 120000 M⁻¹ s⁻¹
Compound = O=c1c2ccccc2[se]n1-c1ccccc1; target = fbpC; test = inhibitor, resorufin butyrate fluorescence; conditions = 5 µM, 40 min preincubation; how to read = reference: untreated; measurement = remaining activity; result = 17 ± 3%
Compound = CCCCCc1cc(O)c2c(c1)OC(C)(C)[C@@H]1CCC(C)=C[C@@H]21; target = Cannabinoid receptor 1 (Cnr1, Mus musculus, UniProt P47746); test = G protein activation, agonist; test system = ICR mouse, female, cerebellar membranes; how to read = reference: basal binding; measurement = Emax; result = 69%
Compound = CN(CC(N)=O)C(=O)C(C)(C)NC(=O)c1nn(Cc2ccc(F)cc2)c2ccccc12; target = CNR2; test = calcium mobilization, agonist; test system = CHO-K1 expressing Gαq16; how to read = reference: CP55,940 maximum; measurement = Emax; result = 77 ± 3%
Compound = O=c1[nH]c(/C=C/c2cccc(O)c2O)c([N+](=O)[O-])c(=O)[nH]1; target = ribE; test = enzyme activity, substrate; test system = Mycobacterium tuberculosis, recombinant riboflavin synthase; conditions = pH 7.0; measurement = Ks; result = 7.2 ± 1 µM
Compound = CN1C(=O)CN=C(c2ccccc2)c2cc(Cl)ccc21; target = Gabrg2/Gabra2, with β3 subunit (Rattus norvegicus, UniProt P18508+P23576); test = GABA-induced chloride current, two-electrode voltage clamp; test system = Xenopus oocytes; conditions = together with: GABA at EC3; measurement = Emax; result = 532 ± 20%
Compound = CNC(=O)C(C)(C)NC(=O)c1nn(Cc2ccc(F)cc2)c2ccccc12; target = CNR2; test = calcium mobilization, agonist; test system = CHO-K1 expressing Gαq16; how to read = reference: CP55,940 maximum; measurement = Emax; result = 84 ± 5%
Compound = CCCN(CCC)[C@@H]1CCc2ccc(O)cc2C1; target = dopamine D2/D3 receptor; test = competitor, in vitro autoradiography; test system = rabbit brain slices; conditions = 10 µM, together with: 18F-fallypride; measurement = radioligand displacement; result = > 90%
Compound = O=c1[nH]c(CCc2ccc(O)cc2)c([N+](=O)[O-])c(=O)[nH]1; target = ribE; test = enzyme activity, substrate; test system = Mycobacterium tuberculosis, recombinant riboflavin synthase; conditions = pH 7.0; measurement = Ks; result = 8.5 ± 0.4 µM
Compound = O=c1c2ccccc2[se]n1C1CCCCC1; target = fbpC; test = inhibitor, resorufin butyrate fluorescence; conditions = 5 µM, 40 min preincubation; how to read = reference: untreated; measurement = remaining activity; result = 44 ± 15%
Compound = CN[C@@H](C)[C@H](O)c1ccccc1; target = 4'-phosphopantetheinyl transferase PptT (Mycobacterium tuberculosis, UniProt O33336); test = inhibitor; conditions = concentration not given; measurement = enzyme activity; result = inactive
Compound = O=c1[nH]c(/C=C/c2cc(O)ccc2O)c([N+](=O)[O-])c(=O)[nH]1; target = ribE; test = enzyme activity, substrate; test system = Mycobacterium tuberculosis, recombinant riboflavin synthase; conditions = pH 7.0; measurement = Ks; result = 7.7 ± 1.3 µM
Compound = CC1N=C(c2ccccc2F)c2cc(NC(C)(C)C)ccc2NC1=O (stereo not shown); target = ADRA2A; test = ligand displacement, radioligand; conditions = 10 µM; measurement = inhibition; result = 6%
Compound = NC(=O)C1=CN([C@@H]2O[C@H](COP(=O)(O)OP(=O)(O)OC[C@H]3O[C@@H](n4cnc5c(N)ncnc54)[C@H](O)[C@@H]3O)[C@@H](O)[C@H]2O)C=CC1; target = Type II NADH:quinone oxidoreductase Ndh; test = substrate; conditions = with quinone acceptors; measurement = Km; result = ~150 µM
Compound = CN1CC[C@]23c4c5ccc(O)c4O[C@H]2[C@@H](O)C=C[C@H]3[C@H]1C5; target = Nociceptin receptor (OPRL1, Homo sapiens, UniProt P41146); test = agonist; measurement = Emax; result = 13.8%
Compound = CC1(C)Oc2cc([C@]34CC5CC(C[C@@](CN=C=S)(C5)C3)C4)cc(O)c2[C@@H]2C[C@H](O)CC[C@H]21; target = CNR2; test = radioligand binding Bmax reduction; test system = HEK293 membranes; conditions = 10-fold Ki, together with: [3H]CP-55,940; how to read = reference: untreated; measurement = covalent labeling; result = 74%
Compound = CC(C)[C@@H]1NC(=O)[C@@H]2CSSC[C@H](NC(=O)[C@@H](N)CCCCN)C(=O)N[C@@H](CCCNC(=N)N)C(=O)N[C@@H](CCC(=O)O)C(=O)N[C@H]3CSSC[C@H](NC(=O)[C@H](CCCCN)NC(=O)CNC(=O)[C@H](CC(N)=O)NC1=O)C(=O)N[C@@H](C(C)C)C(=O)N[C@H](C(=O)N1CCC[C@H]1C(=O)N[C@@H](C)C(=O)O)CSSC[C@H](NC(=O)[C@H](CO)NC(=O)[C@@H]1CCCN1C(=O)[C@H](CO)NC(=O)[C@H]([C@@H](C)O)NC(=O)[C@H](CC(N)=O)NC(=O)CNC3=O)C(=O)N[C@@H](Cc1ccc(O)cc1)C(=O)N[C@@H](Cc1ccccc1)C(=O)N[C@@H](CO)C(=O)NCC(=O)N[C@@H](CC(N)=O)C(=O)N2; target = Potassium voltage-gated channel subfamily A member 2 (KCNA2, Homo sapiens, UniProt P16389); test = whole-cell patch clamp, voltage ramp; test system = CHO cells; conditions = 2 nM, 200 ms ramp, equilibrium block; measurement = activation threshold voltage; result = ~-23 mV
Compound = C[C@H]1N=C(c2ccccc2F)c2cc(Br)ccc2NC1=O; target = ADRA2A; test = ligand displacement, radioligand; conditions = 10 µM; measurement = inhibition; result = 11%
Compound = CC(C)(NC(=O)c1nn(Cc2ccc(F)cc2)c2ccccc12)C(=O)N1CCC[C@H]1C(N)=O; target = CNR2; test = calcium mobilization, agonist; test system = CHO-K1 expressing Gαq16; how to read = reference: CP55,940 maximum; measurement = Emax; result = 82 ± 6%
Compound = COc1ccc2c(c1)[C@]13CCCC[C@@H]1[C@H](C2)N(C)CC3; target = CYP2D (rat); test = substrate, measured: dextrorphan; test system = saline-treated rats, rat liver microsomes; conditions = pH 7.4, 37 °C, high-affinity component; measurement = Km; result = 1.08 ± 0.3 µM
Compound = O=C(NCc1ccc(F)cc1)c1nn(Cc2ccc(F)cc2)c2ccccc12; target = CNR2; test = calcium mobilization, agonist; test system = CHO-K1 expressing Gαq16; how to read = reference: CP55,940 maximum; measurement = Emax; result = 53%
Compound = C[C@]12CC[C@H](O)CC1=CC[C@@H]1[C@@H]2CC[C@]2(C)C(=O)CC[C@@H]12; target = 3 beta-hydroxysteroid dehydrogenase/Delta 5-->4-isomerase type 2 (HSD3B2, Homo sapiens, UniProt P26439); test = substrate; conditions = pH 7.4, 27 °C, together with: NAD+ 200 µM; measurement = Km; result = 47.3 µM
Compound = O=C(NCC1CCCCC1)c1nn(Cc2ccc(F)cc2)c2ccccc12; target = CNR2; test = calcium mobilization, agonist; test system = CHO-K1 expressing Gαq16; how to read = reference: CP55,940 maximum; measurement = Emax; result = 78 ± 6%
Compound = CN(C(=O)/C=C/c1ccoc1)[C@@H]1CC[C@@]2(O)[C@H]3Cc4cccc5c4[C@@]2(CCN3CC2CC2)[C@H]1O5; target = OPRK1; test = beta-arrestin 2 recruitment, agonist, Tango; test system = HEK293; conditions = concentration not given; how to read = reference: U50488H; measurement = log relative intrinsic activity; result = -0.28 ± 0.03
Compound = C#Cc1ccc2c(c1)C(c1ccccc1F)=N[C@H](C)c1c(C(=O)NC)ncn1-2; target = Gabrg2/Gabra5 with β3 subunit; test = GABA-A α5β3γ2 current, positive allosteric modulator, two-electrode voltage clamp; test system = Xenopus oocytes; conditions = together with: GABA EC3-5; measurement = minimum effective concentration; result = ≥ 10 nM
Compound = Nc1ncnc2c1ncn2[C@@H]1O[C@H](COP(=O)(O)OP(=O)(O)OP(O)(O)=S)[C@@H](O)[C@H]1O; target = Serine/threonine-protein kinase PknF (pknF, Mycobacterium tuberculosis, UniProt P9WI75); test = ATP probe labelling, competitor, chemoproteomics; test system = Mycobacterium tuberculosis, lysate; conditions = 500 µM; how to read = reference: untreated; measurement = fold change; result = 3.67 fold
Compound = Cc1ccc(/C=C/C(=O)N[C@@]23CCC(=O)[C@@H]4Oc5c(O)ccc6c5[C@@]42CCN(CC2CC2)[C@@H]3C6)cc1; target = Mu-type opioid receptor (Oprm1, Rattus norvegicus, UniProt P33535); test = antagonist; test system = rat PGE2 thermal hypersensitivity; conditions = intraplantar, 0.25 µg/50 µL; measurement = duration of DAMGO antinociception blockade; result = ≤ 96 h
Compound = COC1=C(OC)C(=O)C(CC=C(C)C)=C(C)C1=O; target = Type II NADH:quinone oxidoreductase Ndh; test = enzyme activity, substrate; measurement = Km; result = 50 ± 20 µM
Compound = CN1CCN(C(=O)OC2c3nccnc3C(=O)N2c2ccc(Cl)cn2)CC1 (stereo not shown); target = Gabrg2/Gabra5 with β3 subunit; test = GABA-induced chloride current, two-electrode voltage clamp; test system = Xenopus oocytes; conditions = together with: GABA at EC3; measurement = Emax; result = 345 ± 22%
Compound = Cc1ccc(N(C)S(=O)(=O)c2ccc3[nH]c(=O)c(=O)[nH]c3c2)cc1; target = N-acetyltransferase Eis (eis, Mycobacterium tuberculosis, UniProt P9WFK7); test = inhibitor, HTS; conditions = 20 µM; measurement = activity class; result = inactive
Compound = CN(C(=O)/C=C/c1ccoc1)[C@@H]1CC[C@@]2(O)[C@H]3Cc4ccc(O)c5c4[C@@]2(CCN3CC2CC2)[C@H]1O5; target = OPRK1; test = G protein activation, agonist, GloSensor cAMP; test system = HEK293T; conditions = concentration not given; how to read = reference: U50488H; measurement = log relative intrinsic activity; result = 0.94 ± 0.14
Compound = CC(C)(NC(=O)c1nn(Cc2ccc(F)cc2)c2ccccc12)C(N)=O; target = CNR2; test = calcium mobilization, agonist; test system = CHO-K1 expressing Gαq16; how to read = reference: CP55,940 maximum; measurement = Emax; result = 61 ± 6%
Compound = COC(=O)[C@H]1[C@@H](c2ccc(Cl)c(Cl)c2)C[C@@H]2CC[C@H]1N2CCOCCOCCNC(=O)c1ccc(C(=O)[O-])c(-c2c3ccc(=[N+]4CCC4)cc-3oc3cc(N4CCC4)ccc23)c1; target = Sodium-dependent dopamine transporter (SLC6A3, Homo sapiens, UniProt Q01959); test = dSTORM, DBSCAN clustering; test system = CAD expressing SLC6A3; conditions = 10 nM; measurement = fraction in nanodomains; result = 0.37

A few entries again:
Compound = NC(=O)C1=CN([C@@H]2O[C@H](COP(=O)(O)OP(=O)(O)OC[C@H]3O[C@@H](n4cnc5c(N)ncnc54)[C@H](O)[C@@H]3O)[C@@H](O)[C@H]2O)C=CC1; target = Type II NADH:quinone oxidoreductase Ndh; test = substrate; conditions = with quinone acceptors; measurement = Km; result = ~150 µM
Compound = CN1C(=O)CN=C(c2ccccc2)c2cc(Cl)ccc21; target = Gabrg2/Gabra2, with β3 subunit (Rattus norvegicus, UniProt P18508+P23576); test = GABA-induced chloride current, two-electrode voltage clamp; test system = Xenopus oocytes; conditions = together with: GABA at EC3; measurement = Emax; result = 532 ± 20%
Compound = O=c1c2ccccc2[se]n1C1CCCCC1; target = fbpC; test = inhibitor, resorufin butyrate fluorescence; conditions = 5 µM, 40 min preincubation; how to read = reference: untreated; measurement = remaining activity; result = 44 ± 15%
